Results of several laboratories.
Protocols differ between the studies behind these lines. Numbers after ± are the reported error.

| Compound | cell line | test | conditions | how to read | quantity | value |
| --- | --- | --- | --- | --- | --- | --- |
| CC(=O)N[C@@H](CCCNC(=N)N)C(=O)N[C@@H](CCCNC(=N)N)C(=O)N[C@@H](CCCNC(=N)N)C(=O)N[C@@H](CCCNC(=N)N)C(=O)N[C@@H](CCCNC(=N)N)C(=O)N[C@@H](CCCNC(=N)N)C(=O)N[C@@H](CCCNC(=N)N)C(=O)N[C@@H](CCCNC(=N)N)C(=O)N[C@@H](CCCNC(=N)N)C(=O)N[C@@H](CCCNC(=N)N)C(=O)NCC(=O)N[C@@H](COP(=O)(O)O)C(=O)N1CCC[C@H]1C(=O)N[C@H](C(=O)N[C@@H](Cc1ccccc1)C(=O)O)[C@@H](C)O | HeLa | DNA damage, immunostaining | 10 µM, 30 min, with: ionizing radiation 15 Gy | – | γH2AX-positive cells | 81.5 ± 3.93% |
| CC1OC2OC3C4=C(OC3(C)C12O)C(=O)c1c(O)cccc1C4=O (centres unmarked) | HeLa and HFF | MTT | – | relative to: CC50 HFF over EC50 HeLa | selectivity index | 2.62 |
| CCCC[C@H](O)C[C@@H](C)C[C@H](NC(=O)[C@@H]1C[C@H](C)CN1C(=O)/C=C/[C@@H](C)CC)C(=O)N[C@H](C(=O)NC(C)(C)C(=O)N[C@@H](CC(C)C)C(=O)N[C@@H](CC(C)C)C(=O)NC(C)(C)C(=O)NC(C)(C)C(=O)NCCC(=O)N[C@@H](C)CNC)[C@H](O)C(C)C | SUM185PE | cell growth or viability, SRB | 48 h | – | GI50 | 0.0021 µM |
| Fc1cc2nc3c4cccnc4c4ncccc4c3nc2cc1F.[Cl-].[Cl-].[Ru+2].c1ccncc1.c1ccncc1.c1ccncc1.c1ccncc1 | L-O2 | – | 5 µM, 24 h, with irradiation | – | viability | 70% |
| CC/C=C\C/C=C\C/C=C\C/C=C\C/C=C\C/C=C\CCC(=O)Nc1ccn(C2OC(CO)C(O)C2(F)F)c(=O)n1 (centres unmarked) | SK-MEL-2 | NCI60 screen | – | – | CC50 | 67.6 µM |
| CSCC[C@H](NC(=O)[C@H](CCC(=O)O)NC(=O)CN)C(=O)N[C@@H](Cc1ccccc1)C(=O)O | HaCaT | CCK-8 | 10 µg/mL, 72 h, 0.4 % serum | – | viability | 109 ± 1.47% |
| CCCCCCCCCCCCCC(=O)NCC(=O)N[C@@H](CCCNC(=N)N)C(=O)N[C@@H](Cc1c[nH]c2ccccc12)C(=O)N[C@@H](CCCCN)C(=O)N[C@H](C(=O)N[C@@H](Cc1ccccc1)C(=O)N[C@@H](CCCCN)C(=O)N[C@@H](CCCCN)C(=O)N[C@H](C(=O)N[C@@H](CCC(=O)O)C(=O)N[C@@H](CCCCN)C(=O)N[C@H](C(=O)NCC(=O)N[C@@H](CCC(N)=O)C(=O)N[C@@H](CC(N)=O)C(=O)N[C@H](C(=O)N[C@@H](CCCNC(=N)N)C(=O)N[C@@H](CC(=O)O)C(=O)NCC(=O)N[C@H](C(=O)N[C@H](C(=O)N[C@@H](CCCCN)C(=O)N[C@@H](C)C(=O)NCC(=O)N1CCC[C@H]1C(=O)N[C@@H](C)C(=O)N[C@H](C(=O)N[C@@H](C)C(=O)N[C@H](C(=O)N[C@H](C(=O)NCC(=O)N[C@@H](CCC(N)=O)C(=O)N[C@@H](C)C(=O)N[C@@H](C)C(=O)N[C@H](C(=O)N[C@H](C(N)=O)[C@@H](C)CC)[C@@H](C)O)C(C)C)C(C)C)C(C)C)C(C)C)[C@@H](C)CC)[C@@H](C)CC)C(C)C)[C@@H](C)CC)[C@@H](C)CC | K562/MDR | DCFH-DA fluorescence | 2 and 4 µM, 12 h | relative to: PBS control | ROS level | increased |
| CC1CCC2C(C)C(OC(=O)CCC(=O)N(CCCc3cn(-c4ccc(C#N)cc4)nn3)CCNc3ccnc4cc(Cl)ccc34)OC3OC4(C)CCC1C32OO4 (centres unmarked) | RPMI-8226 | cell growth or viability, resazurin | 10 µM, 48 h | – | inhibition | 23.3% |
| CSCC[C@H](NC(=O)[C@H](CC(C)C)NC(=O)CNC(=O)[C@H](Cc1ccccc1)NC(=O)[C@H](Cc1ccccc1)NC(=O)[C@H](CCC(N)=O)NC(=O)[C@H](CCC(N)=O)NC(=O)[C@@H]1CCCN1C(=O)[C@H](CCCCN)NC(=O)[C@@H]1CCCN1C(=O)[C@@H](N)CCCNC(=N)N)C(N)=O | rat mast cells | patch-clamp capacitance | 1 to 25 µM | – | degranulation rate | 0.045 ± 0.008 pF/s |
| C#CCCCNCCNc1ccnc2cc(Cl)ccc12 | RPMI-8226 | cell growth or viability, resazurin | 10 µM, 48 h | – | inhibition | 13% |
| CNC(=O)c1cc(Oc2ccc(NC(=O)c3ccc(-c4ccccc4OC(=O)CCC(=O)OC4OC5OC6(C)CCC7C(C)CCC(C4C)C57OO6)cn3)cc2)ccn1 (centres unmarked) | Hep3B and LO2 | cell viability, MTT | 72 h | relative to: IC50 LO2 over IC50 Hep3B | selectivity ratio | > 11.5 |
| COc1ccc(/C=C/C(=O)CC(=O)/C=C/c2ccc(OC)c(OC)c2)cc1OC | LN-229 | Western blot, measured: p-AKT, p-ERK, LC3B-II, p62 | concentration not given, 24 h | – | protein level | increased |
| CC1=CCC23OC2(C)CCC2C(C[N+](C)(C)C)C(=O)OC2C13.[I-] (centres unmarked) | RPMI-8226 | cell growth or viability, SRB | 8.3 µM | – | inhibition | 91.5% |
| CNC(=O)c1cc(Oc2ccc(NC(=O)c3cc(-c4ccc(OC(=O)CCC(=O)OC5OC6OC7(C)CCC8C(C)CCC(C5C)C68OO7)cc4)ccn3)cc2)ccn1 (centres unmarked) | Hep3B and LO2 | cell viability, MTT | 72 h | relative to: IC50 LO2 over IC50 Hep3B | selectivity ratio | 6.1 |
| O=C(O)c1ccc([PH]([Au][Cl])(c2ccccc2)c2ccccc2)cc1 | HUVEC | tube formation | IC10, 16 h | – | tube length disruption | 7% |
| O=C(Nc1ccc(C(F)(F)F)cc1Cl)c1cc(Cl)ccc1O | CWR22Rv1 cells | ELISA | 0.5 and 1.0 µM | – | cell death | increased |

| Compound | cell line | test | conditions | how to read | quantity | value |
| --- | --- | --- | --- | --- | --- | --- |
| Cc1cc(O)cc(-c2nc(Nc3cc(C(F)(F)F)cc(C(F)(F)F)c3)ncc2-c2ccnc(Cl)c2)c1 | HT-29 | DNA flow cytometry | 10 µM, 48 h | – | cells in G0/G1 phase | 59.7 ± 0.73% |
| COCC12CN(C)C3C4C(OC)C1C3(C(OC)CC2O)C1CC2(O)C(O)C1C4(O)C(O)C2OC (centres unmarked) | HBE | cell growth or viability, MTT | – | – | IC50 | 20.2 µM |
| Cc1ccc2ccc3ccc(C)nc3c2n1.O.[99Tc+].[C-]#[O+].[C-]#[O+].[C-]#[O+] | HeLa | annexin V/PI | 5 µM, 24 h | – | early apoptotic cells | 19% |
| COCCOCCOCCOc1ccc(-n2cc(CCCN(CCNc3ccnc4cc(Cl)ccc34)C(=O)CCC(=O)OC3OC4OC5(C)CCC6C(C)CCC(C3C)C46OO5)nn2)cc1 (centres unmarked) | MOLT-4 | cell growth or viability, resazurin | 10 µM, 48 h | – | inhibition | 33.3% |
| CC[C@H](C)[C@H](NC(=O)[C@H](CC(N)=O)NC(=O)[C@H](CCCCN)NC(=O)[C@H](Cc1ccccc1)NC(=O)[C@H](Cc1ccccc1)NC(=O)[C@H](Cc1c[nH]cn1)NC(=O)[C@@H](NC(=O)[C@@H](NC(=O)[C@@H]1CCCN1C(=O)[C@@H](N)CC(N)=O)C(C)C)C(C)C)C(=O)N[C@H](C(=O)N[C@H](C(=O)N[C@@H](C)C(=O)O)[C@@H](C)O)C(C)C | T cell clone Ob.1E10 | T cell proliferation, agonist, [3H]thymidine incorporation | 72 h, peptide-pulsed APC, with: EBV-transformed B cells DR2/DQ6 as APC | – | EC50 | > 50 µM |
| CC[C@H](C)[C@H](NC(C)=O)C(=O)N[C@@H](CC(N)=O)C(=O)N[C@@H](Cc1c[nH]c2ccccc12)C(=O)N[C@@H](Cc1c[nH]cn1)C(=O)N[C@@H](C)C(=O)N[C@H](C(=O)N[C@@H](C)C(=O)N[C@@H](Cc1c[nH]cn1)C(=O)N[C@@H](CCSC)C(=O)N[C@@H](C)C(=O)N[C@@H](CCCCN)C(=O)N[C@@H](CCCCN)C(=O)N[C@@H](CC(C)C)C(=O)N[C@@H](CC(C)C)C(N)=O)[C@@H](C)CC | human erythrocytes | haemolysis | with: Ni(II) 300 µM | – | Hill coefficient | 1.8 ± 0.7 |
| CC1CCC2C(C)C(OC(=O)CCC(=O)N(CCCc3cn(-c4ccc([N+](=O)[O-])cc4)nn3)CCNc3ccnc4cc(Cl)ccc34)OC3OC4(C)CCC1C32OO4 (centres unmarked) | MOLT-4 | cell growth or viability, resazurin | 10 µM, 48 h | – | inhibition | 33.4% |
| CC[C@H](C)[C@H](NC(C)=O)C(=O)N[C@@H](CC(N)=O)C(=O)N[C@@H](Cc1c[nH]c2ccccc12)C(=O)N[C@@H](CCCCN)C(=O)NCC(=O)N[C@H](C(=O)N[C@@H](C)C(=O)N[C@@H](C)C(=O)N[C@@H](CCSC)C(=O)N[C@@H](C)C(=O)N[C@@H](CCCCN)C(=O)N[C@@H](CCCCN)C(=O)N[C@@H](CC(C)C)C(=O)N[C@@H](CC(C)C)C(N)=O)[C@@H](C)CC | human erythrocytes | hemolysis | no metal added | – | Hill coefficient | 1.6 ± 0.1 |
| CN1CCc2[nH]c3ccc(F)cc3c2CC1 | rat embryonic cortical neurons | Sholl analysis | dose not given, DIV6 | relative to: vehicle | dendritic arbor complexity | not toxic |
| C=CC(=O)Nc1cc(-c2nn(C3CCC(N4CCN(C(C)=O)CC4)CC3)c3ncnc(N)c23)ccc1Oc1ccccc1 (centres unmarked) | HCC2935 | cell growth or viability | – | – | EC50 | > 10 µM |
| O=C(O)CCC(NP(=O)(O)OCCC[C@@H](NC(=O)CCC(NC(=O)CCCCCNC(=O)c1ccc([18F])cc1)C(=O)O)C(=O)O)C(=O)O (some centres unmarked) | CWR22Rv1 | – | 1 h | – | internalized fraction | 81.4% |
| Cc1cc2c(C(=O)Cc3ccccc3)c(O)c(O)cc2c(O)c1-c1c(C)cc2c(C(=O)Cc3ccccc3)c(O)c(O)cc2c1O | RS11846 | apoptosis, annexin V/PI flow cytometry | 1-2 d | – | EC50 | 4.9 µM |
| CC12CCC3(CCC(=O)NCCNc4ccnc5cc(Cl)ccc45)C(C)(OOC3(C)O1)O2 | MOLT-4 | cell growth or viability, resazurin | 10 µM, 48 h | – | inhibition | 12.7% |
| CC(C)Cc1ccc(C(C)C(=O)OCC(O)COP(=O)([O-])OCC[N+](C)(C)C)cc1 (centres unmarked) | MCF-10A and MCF7 | cell growth, SRB | 72 h | relative to: IC50 MCF-10A over MCF7 | selectivity ratio | < 1 |
| CC(=O)Oc1ccccc1/C=C/C(=O)Nc1nc(=O)n([C@@H]2O[C@H](C)[C@@H](OC(C)=O)[C@H]2OC(C)=O)cc1F | BXPC-3 | cell viability, MTT | – | relative to: NHDF fibroblasts over BXPC-3 | selectivity index | 3.66 |
| CC(C)CC(O)(CC(C)C)c1cn(C(=O)N2CCCC2)nn1 | mouse T-cells | N-terminal labeled proteins, N-terminal enrichment proteomics, measured: EFHD2 | 1 nM, 6 h | relative to: DMSO | SILAC ratio | 2.18 ± 0.12 |

Some of these lines once more:
| Compound | cell line | test | conditions | how to read | quantity | value |
| --- | --- | --- | --- | --- | --- | --- |
| C=CC(=O)Nc1cc(-c2nn(C3CCC(N4CCN(C(C)=O)CC4)CC3)c3ncnc(N)c23)ccc1Oc1ccccc1 (centres unmarked) | HCC2935 | cell growth or viability | – | – | EC50 | > 10 µM |
| O=C(O)CCC(NP(=O)(O)OCCC[C@@H](NC(=O)CCC(NC(=O)CCCCCNC(=O)c1ccc([18F])cc1)C(=O)O)C(=O)O)C(=O)O (some centres unmarked) | CWR22Rv1 | – | 1 h | – | internalized fraction | 81.4% |
| Cc1cc2c(C(=O)Cc3ccccc3)c(O)c(O)cc2c(O)c1-c1c(C)cc2c(C(=O)Cc3ccccc3)c(O)c(O)cc2c1O | RS11846 | apoptosis, annexin V/PI flow cytometry | 1-2 d | – | EC50 | 4.9 µM |
| CC12CCC3(CCC(=O)NCCNc4ccnc5cc(Cl)ccc45)C(C)(OOC3(C)O1)O2 | MOLT-4 | cell growth or viability, resazurin | 10 µM, 48 h | – | inhibition | 12.7% |
| CC(C)Cc1ccc(C(C)C(=O)OCC(O)COP(=O)([O-])OCC[N+](C)(C)C)cc1 (centres unmarked) | MCF-10A and MCF7 | cell growth, SRB | 72 h | relative to: IC50 MCF-10A over MCF7 | selectivity ratio | < 1 |
